Literature values that unrelated publications cite.
Protocols differ between the studies behind these lines. Numbers after ± are the reported error.
UniProt Q13873, sequence (whole entry, looked up): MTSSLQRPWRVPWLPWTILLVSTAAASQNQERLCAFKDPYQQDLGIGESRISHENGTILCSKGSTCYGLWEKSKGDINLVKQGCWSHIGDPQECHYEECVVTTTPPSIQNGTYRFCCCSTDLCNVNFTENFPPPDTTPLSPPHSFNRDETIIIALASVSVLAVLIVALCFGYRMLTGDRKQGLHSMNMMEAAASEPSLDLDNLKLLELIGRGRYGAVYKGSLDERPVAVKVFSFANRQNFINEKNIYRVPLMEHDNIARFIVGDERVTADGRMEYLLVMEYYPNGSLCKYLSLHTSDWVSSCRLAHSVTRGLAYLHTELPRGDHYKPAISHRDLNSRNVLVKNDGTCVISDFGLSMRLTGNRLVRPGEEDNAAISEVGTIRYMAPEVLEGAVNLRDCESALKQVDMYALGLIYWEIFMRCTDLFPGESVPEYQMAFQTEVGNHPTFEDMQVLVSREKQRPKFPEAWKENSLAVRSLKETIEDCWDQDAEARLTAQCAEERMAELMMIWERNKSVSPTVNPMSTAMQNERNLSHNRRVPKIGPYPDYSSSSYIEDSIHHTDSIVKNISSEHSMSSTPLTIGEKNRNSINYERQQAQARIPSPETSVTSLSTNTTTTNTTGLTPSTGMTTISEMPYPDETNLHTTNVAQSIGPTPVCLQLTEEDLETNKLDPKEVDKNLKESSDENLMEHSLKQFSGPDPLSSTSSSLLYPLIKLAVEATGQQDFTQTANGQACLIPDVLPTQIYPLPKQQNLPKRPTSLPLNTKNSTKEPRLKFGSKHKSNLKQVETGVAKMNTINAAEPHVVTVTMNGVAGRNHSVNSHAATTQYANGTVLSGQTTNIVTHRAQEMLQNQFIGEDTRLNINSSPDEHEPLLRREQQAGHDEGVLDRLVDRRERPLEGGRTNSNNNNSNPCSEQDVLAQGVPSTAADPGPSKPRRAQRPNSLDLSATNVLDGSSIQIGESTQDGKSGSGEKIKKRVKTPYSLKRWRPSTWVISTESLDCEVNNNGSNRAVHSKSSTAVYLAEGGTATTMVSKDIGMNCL

For `C[C@]12C=CC(=O)C=C1CC[C@H]1[C@@H]3C[C@@H](O)[C@](O)(C(=O)CO)[C@@]3(C)C[C@H](O)[C@@]12F`, the Cmax was 0.027 µM (human, plasma; concentration not given).
The Cmax of `COc1c(C)c2c(c(O)c1C/C=C(\C)CCC(=O)OCCN1CCOCC1)C(=O)OC2` is reported as 57 µM (human, plasma; concentration not given, total plasma concentration).
The Cmax of `COc1ccc2[nH]c([S+]([O-])Cc3ncc(C)c(OC)c3C)nc2c1` (stereo not drawn) is reported as 0.959 µg/mL (human post-RYGB patients; oral tablet, 20 mg twice daily, day 7).
`CC(=O)O[C@@]12CO[C@@H]1C[C@H](O)[C@@]1(C)C(=O)[C@H](O)C3=C(C)[C@@H](OC(=O)[C@H](O)[C@@H](NC(=O)OC(C)(C)C)c4ccccc4)C[C@@](O)([C@@H](OC(=O)c4ccccc4)[C@H]21)C3(C)C` has a Cmax of 3.7 µM (human, plasma; concentration not given).
`Nc1cc(C(F)(F)F)c(-c2nc(N3CCOCC3)nc(N3CCOCC3)n2)cn1` gave a remaining activity of 82% (BMPR2 (Homo sapiens, UniProt Q13873); enzyme activity; 10 µM; baseline: untreated).
For `C#C[C@]1(O)CC[C@H]2[C@@H]3CCC4=CC(=NO)CC[C@@H]4[C@H]3CC[C@@]21CC` (mixture of isomers), the Cmax was 0.00266 µg/mL (human fasted; 0.25 mg, after 7 days, with: norgestimate).
For `CCc1nn(CCO)c(CC)c1Oc1cc(C#N)cc(C#N)c1`, the Cmax was 2.96 µM (human, plasma total; 400 mg).
`O=C(CCCN1CCC(O)(c2ccc(Cl)cc2)CC1)c1ccc(F)cc1` has a Cmax of 0.027 µM (human, plasma; concentration not given).
`CC(C)(C)NCC(O)c1cc(O)cc(O)c1` (stereo not drawn) gave a Cmax of 0.012 µM (human, plasma; inhaled, dose not given).
`CCN(CC)Cc1ccc2cc(COC(=O)Nc3ccc(C(=O)NO)cc3)ccc2c1` gave a Cmax of 0.199 µM (healthy male humans; oral, 100 mg).
For `CCN1CCN(Cc2ccc(Nc3ncc(F)c(-c4cc(F)c5nc(C)n(C(C)C)c5c4)n3)nc2)CC1`, the Cmax was 0.123 µg/mL (human; oral tablet, 150 mg twice daily, multiple dose).
With `O=C(c1cc(Cc2n[nH]c(=O)c3ccccc23)ccc1F)N1CCN(C(=O)C2CC2)CC1` the Cmax was 4.2 µg/mL (human; oral, 100 mg tablet, single dose, with: itraconazole 200 mg qd for 7 days).
With `COc1cccc2c1C(=O)c1c(O)c3c(c(O)c1C2=O)C[C@@](O)(C(=O)CO)C[C@@H]3O[C@H]1C[C@H](N)[C@H](O)[C@H](C)O1` the Cmax was 0.32 ± 0.063 µM (human, plasma; intravenous infusion, 30 mg/m^2, 4 h infusion).
`C=CC(=O)N1CCC([C@@H]2CCNc3c(C(N)=O)c(-c4ccc(Oc5ccccc5)cc4)nn32)CC1` has a Cmax of 0.376 ± 0.192 µg/mL (human patients, plasma; oral, 160 mg twice daily, day 1).
`C[C@@H](Oc1ccc(S(C)(=O)=O)cc1C(=O)N1C[C@@H]2C[C@]2(c2cc(C(F)(F)F)on2)C1)C(F)(F)F` has a Cmax of 0.089 µM (human; oral, 5 mg, solution, fasted, single dose).
The Cmax of `CC(=O)Oc1cccc2c1C(=O)c1c(OC(C)=O)cc(C(=O)O)cc1C2=O` is reported as 13 µM (human, plasma; concentration not given).
For `CCCc1nc2c(C)cc(-c3nc4ccccc4n3C)cc2n1Cc1ccc(-c2ccccc2C(=O)O)cc1`, the Cmax was 0.3 µM (human; dose not given).
`CCc1ccc(CCOc2ccc(CC3SC(=O)NC3=O)cc2)nc1` (stereo not drawn) gave a Cmax of 3 to 6 µM (human, plasma; oral, 45 mg single dose).
`O=c1ccc2ccc(OCCCCN3CCN(c4cccc5sccc45)CC3)cc2[nH]1` has a Cmax of 0.16 µM (human; dose not given).
`O=C(c1cccnc1-c1ccncc1)N1CCC(O)(Cc2ccccc2)CC1` has a Cmax of 1.52 µg/mL (human, plasma; 300 mg single dose, with: mefenamic acid).
`Cc1cc(C)c(CNC(=O)c2cc(Cl)c3c(c2C)O[C@@](C)([C@H]2CC[C@H](N(C)C)CC2)O3)c(=O)[nH]1` gave a Cmax of roughly 1.5 µg/mL (healthy human, fasted; oral, 200 mg single dose, mean).
The Cmax of `NC(=O)N1c2ccccc2CC(=O)c2ccccc21` is reported as 7.91 µM (human, plasma total; 450 mg).
The Cmax of `C[C@@H]1C[C@H]2[C@@H]3CCC4=CC(=O)C=C[C@]4(C)[C@@]3(F)[C@@H](O)C[C@]2(C)[C@@]1(O)C(=O)CO` is reported as 0.0704 µg/mL (human, plasma; 8 mg, monotherapy).
The Cmax of `NC(N)=Nc1nc(CSCCC(N)=NS(N)(=O)=O)cs1` is reported as 0.02 to 0.3 µM (human; concentration not given).
The Cmax of `O=C(O)c1cc(O)c(O)c(O)c1` is reported as 4 µM (human; oral, 50 mg).
For `Cc1cc(Nc2ncc(Cl)c(Nc3ccccc3S(=O)(=O)C(C)C)n2)c(OC(C)C)cc1C1CCNCC1`, the Cmax was 1.4 µM (human, plasma; dose not given).
`CC(C)[C@H](C(=O)Nc1ccc(C(=O)NO)cc1)c1ccccc1` has a Cmax of 0.383 µM (human subjects; oral, 20 mg).
`CC1(C)C[C@@H]1C(=O)N/C(=C\CCCCSC[C@H](N)C(=O)O)C(=O)O` gave a Cmax of 182 µM (human; intravenous, dose not given).
`CC(C)N(CCCCOCC(=O)NS(C)(=O)=O)c1cnc(-c2ccccc2)c(-c2ccccc2)n1` has a Cmax of 0.512 µM (human, plasma total; 1.6 mg).
For `COc1cc2c(Oc3ccc4[nH]c(C)cc4c3F)ccnc2cc1OCC1(N)CC1`, the Cmax was 0.0937 ± 0.0278 µg/mL (human; 16 mg/day, two cycles).
`CNCc1cc(-c2ccccc2F)n(S(=O)(=O)c2cccnc2)c1` gave a Cmax of 0.058 µg/mL (human, plasma; 40 mg multiple dose, observed clinical data).
With `COCCc1ccc(OCC(O)CNC(C)C)cc1` (stereo not drawn) the Cmax was 0.178 µg/mL (human fasted; 300 mg multiple doses, day 7, mean).
`FC(F)(F)c1ccc(CNc2ccc(Cc3c[nH]c4ncc(Cl)cc34)cn2)cn1` gave a Cmax of 8.82 µg/mL (human; 1000 mg/day, day 15).
`CN(C)c1ccc2nc3ccc(=[N+](C)C)cc-3sc2c1` gave a Cmax of 2.2 to 19 µM (human, blood; 1 to 2 mg/kg).
The Cmax of `Cc1nsc(-c2nnc3n2CCN(C(=O)c2ccc(F)cc2)[C@@H]3C)n1` is reported as 0.423 µg/mL (human; oral, 60 mg, day 21, fed).
`CCC(C)n1ncn(-c2ccc(N3CCN(c4ccc(OCC5COC(Cn6cncn6)(c6ccc(Cl)cc6Cl)O5)cc4)CC3)cc2)c1=O` (stereo not drawn) gave a Cmax of 0.119 µg/mL (human; oral, 200 mg single dose).
With `C[C@H]1CO[C@@H]2Cn3cc(C(=O)NCc4ccc(F)cc4F)c(=O)c(O)c3C(=O)N12` the Cmax was 1.18 µg/mL (human; oral tablet, two 5 mg tablets, geometric mean fed).
`COc1c2occc2cc2ccc(=O)oc12` has a Cmax of 1.5 µM (human, plasma; concentration not given).
For `OC(Cn1cncn1)(Cn1cncn1)c1ccc(F)cc1F`, the Cmax was 7.79 µg/mL (human; oral, 400 mg single dose).

Repeated from above:
`Nc1cc(C(F)(F)F)c(-c2nc(N3CCOCC3)nc(N3CCOCC3)n2)cn1` gave a remaining activity of 82% (BMPR2 (Homo sapiens, UniProt Q13873); enzyme activity; 10 µM; baseline: untreated).
For `C#C[C@]1(O)CC[C@H]2[C@@H]3CCC4=CC(=NO)CC[C@@H]4[C@H]3CC[C@@]21CC` (mixture of isomers), the Cmax was 0.00266 µg/mL (human fasted; 0.25 mg, after 7 days, with: norgestimate).
`CC(C)N(CCCCOCC(=O)NS(C)(=O)=O)c1cnc(-c2ccccc2)c(-c2ccccc2)n1` has a Cmax of 0.512 µM (human, plasma total; 1.6 mg).
The Cmax of `CC(=O)Oc1cccc2c1C(=O)c1c(OC(C)=O)cc(C(=O)O)cc1C2=O` is reported as 13 µM (human, plasma; concentration not given).
`CCc1ccc(CCOc2ccc(CC3SC(=O)NC3=O)cc2)nc1` (stereo not drawn) gave a Cmax of 3 to 6 µM (human, plasma; oral, 45 mg single dose).
`C[C@@H](Oc1ccc(S(C)(=O)=O)cc1C(=O)N1C[C@@H]2C[C@]2(c2cc(C(F)(F)F)on2)C1)C(F)(F)F` has a Cmax of 0.089 µM (human; oral, 5 mg, solution, fasted, single dose).
